Measured values of several laboratories.
Values joined by “and” are separate records of one study, mostly repeats; a detail may differ. ± gives the spread as reported.
fabG: 3-oxoacyl-[acyl-carrier-protein] reductase FabG (fabG, Pseudomonas aeruginosa, UniProt O54438)
TST: Thiosulfate sulfurtransferase (TST, Bos taurus, UniProt P00586)
MAOA: Amine oxidase [flavin-containing] A (MAOA, Homo sapiens, UniProt P21397)

SMILES	target or system	assay	system	setting	how to read	measurement	result
Cn1cc(C(=O)N2CCc3ccccc32)c2ccccc21	fabG	enzyme activity, inhibitor, NADPH fluorescence		reverse reaction, geometric mean, added: 3-OH-decanoyl-NAC, NADP		IC50	8.8 µM
OC[C@H]1O[C@@](CO)(O[C@H]2O[C@H](CO)[C@@H](O)[C@H](O)[C@H]2O)[C@@H](O)[C@@H]1O	uncharacterized protein (Drosophila suzukii, UniProt A0AB39ZGK5)	binding, bis-ANS competition fluorescence		pH 7.4, added: bis-ANS		IC50	> 50 µM
CCn1c(NC(=O)Nc2ccccc2C)nc2ccccc21	fabG					IC50	0.09 µM
COc1ccc(S(=O)(=O)Nc2ccc3oc(-c4ccc(NS(=O)(=O)c5cc(F)ccc5OC)cc4)nc3c2)cc1	TST	enzyme activity, inhibitor		native rhodanese counter-screen		IC50	> 100 µM
CCCCC(C)=O	uncharacterized protein (Bradysia odoriphaga, UniProt A0A2S0X9G4)	binding, competitive fluorescence displacement		pH 7.4		IC50	> 50 µM
CN1CCN(c2ccc(Nc3ncc4cc(C#N)c(=O)n(C5CCCC5)c4n3)cc2)CC1	Calcium/calmodulin-dependent protein kinase kinase 1 (CAMKK1, Homo sapiens, UniProt Q8N5S9)					IC50	> 10 µM
C/C1=C\CC/C(C)=C/CC(C)(C)/C=C/C1	uncharacterized protein (Bradysia odoriphaga, UniProt A0A2S0X9G4)	binding, competitive fluorescence displacement		pH 7.4		IC50	> 50 µM
CN1CCC(CNc2ccc3ncc(-c4cccc(OC(F)(F)F)c4)n3n2)CC1	Tyrosine-protein kinase Lck (LCK, Homo sapiens, UniProt P06239)	binding, KINOMEscan binding		top concentration 10 µM		IC50	0.215 µM
C=CC(C)(CCC=C(C)C)OC(C)=O (stereo not shown)	uncharacterized protein (Drosophila suzukii, UniProt A0AB39ZCT4)	binding, bis-ANS competition fluorescence		pH 7.4, added: bis-ANS		IC50	> 50 µM
c1cc(N2CCCC2)ccc1-c1cc2ncc(OCC3CCNCC3)nc2cc1-c1ccc(N2CCCC2)cc1	Protein ENL, with DOT1L (MLLT1, Homo sapiens, UniProt Q03111)	AlphaScreen				IC50	0.95 ± 0.13 µM
CC(C)C[C@H](NC(=O)C[C@H](O)[C@H](CC(C)C)NC(=O)[C@H](Cc1c[nH]cn1)NC(=O)CNC(=O)[C@@H](NC(=O)[C@H](C)NC(=O)[C@H](Cc1c[nH]c2ccccc12)NC(=O)[C@H](CCC(N)=O)NC(=O)[C@@H](Cc1ccccc1)NC(=O)COCCOCCNC(=O)CCC(C(=O)O)N1CCN(CC(=O)O)CCN(CC(=O)O)CCN(CC(=O)O)CC1)C(C)C)C(N)=O (stereo partly shown) [lutetium-177 labelled]			BALB/c nu/nu mice, small intestine	100 pmol, 1 h, added: PA 300 µg		tissue uptake	0.9 ± 0.3 %ID/g
NC(=O)NO	NADH dehydrogenase [ubiquinone] iron-sulfur protein 7, mitochondrial/NADH dehydrogenase [ubiquinone] iron-sulfur protein 2, mitochondrial/MT-ND1 (Homo sapiens, UniProt O75251+O75306+P03886)	oxygen consumption rate, inhibitor, Seahorse XF-96	HCT-116	complex I-driven		IC50	> 3000 µM
CCCCC=O	uncharacterized protein (Bradysia odoriphaga, UniProt A0A2S0X9G4)	binding, competitive fluorescence displacement		pH 7.4		IC50	> 50 µM
CCCCCCCCCCCCCC(=O)OC	uncharacterized protein (Drosophila suzukii, UniProt A0AB39ZCT4)	binding, bis-ANS competition fluorescence		pH 7.4, added: bis-ANS		IC50	> 50 µM
Cc1cnc(-c2ccc(-c3ccc(NC(=O)Nc4c(F)cc(F)cc4F)cc3F)c3c2C(=O)NC3)[nH]1	Receptor-type tyrosine-protein kinase FLT3 (FLT3, Homo sapiens, UniProt P36888)	enzyme activity, inhibitor, mobility shift		added: ATP 1 mM		IC50	0.0081 µM
CCNc1nc(C#N)nc(Nc2ccccc2)n1	fabG	enzyme activity, inhibitor, NADPH fluorescence		reverse reaction, geometric mean, added: 3-OH-decanoyl-NAC, NADP		IC50	3.8 µM
O=C(Nc1ccc(F)c(F)c1)c1ccc2c(c1)C(=O)NC2=O	MAOA					IC50	> 40 µM
Cc1[nH]c(N)nc1CCC(=O)c1cc(F)cc(F)c1	Voltage-gated hydrogen channel 1 (HVCN1, Homo sapiens, UniProt Q96D96)	proton current, inhibitor, inside-out patch clamp	Xenopus laevis oocytes	pH 6.0		IC50	13.3 ± 1 µM
O=C(O)c1ccc(NS(=O)(=O)c2ccc(Cl)c(Cl)c2)c2ncccc12	Estradiol 17-beta-dehydrogenase 11 (Homo sapiens, UniProt Q8NBQ5)	enzyme activity, inhibitor		added: 20-HETE ethanolamide substrate		IC50	> 100 µM
[Cl-].[Cl-].[Zn+2]	Voltage-gated hydrogen channel 1 (HVCN1, Homo sapiens, UniProt Q96D96, E119H)	proton current, inhibitor, whole-cell voltage clamp				IC50	0.57 µM
COc1cc(/C=C/C(=O)CC(=O)/C=C/c2ccc(O)c(OC)c2)ccc1O	Sarcoplasmic/endoplasmic reticulum calcium ATPase 1 (ATP2A1, Oryctolagus cuniculus, UniProt P04191)	ATPase activity, inhibitor				IC50	5.1 µM
CC(C)C[C@H](NC(=O)[C@H](Cc1cccc2ccccc12)NC(=O)OCc1ccccc1)C(=O)N[C@H](CO)Cn1ccnn1	Genome polyprotein, 3C-like protease (ORF1, Hu/NV/NV/1968/US, UniProt Q83883)	protease activity, inhibitor, FRET	GI.1	37 °C		IC50	> 1 µM
O=C(Nc1ccc(F)cc1)c1ccc2c(c1)C(=O)NC2=O	MAOA					IC50	> 40 µM

SMILES	target or system	assay	system	setting	how to read	measurement	result
CN1C(=O)[C@@H](Cc2ccc(O)cc2)NC(=O)CNC(=O)[C@H](Cc2ccc3ccccc3c2)NC(=O)[C@H](CCCNC(=N)N)NC(=O)[C@H]1CCCNC(=O)c1ccc(NC(=O)CN2CCN(CC(=O)O)CCN(CC(=O)O)CCN(CC(=O)O)CC2)cc1	C-X-C chemokine receptor type 4 (CXCR4, Homo sapiens, UniProt P61073)					IC50	0.22 ± 0.162 µM
N#Cc1c(N)nc(-c2ccccc2)nc1C(F)(F)F	fabG	enzyme activity, inhibitor, NADPH fluorescence		reverse reaction, geometric mean, added: 3-OH-decanoyl-NAC, NADP		IC50	1.2 µM
CC12CCC(CC1)C(C)(C)O2	uncharacterized protein (Bradysia odoriphaga, UniProt A0A2S0X9G4)	binding, competitive fluorescence displacement		pH 7.4		IC50	> 50 µM
COc1ccc(S(=O)(=O)Nc2ccc3oc(-c4ccc(NC(=O)C5CCN(C(C)=O)CC5)cc4)nc3c2)cc1	TST	enzyme activity, inhibitor		native rhodanese counter-screen		IC50	> 100 µM
CCOC(=O)[C@H]1O[C@@H]1C(=O)N[C@@H](CC(C)C)C(=O)NCCC(C)C	Calpain-2 catalytic subunit (Homo sapiens, UniProt P17655)					IC50	0.53 ± 0.32 µM
CC(=O)/C=C/C1=C(C)CCCC1(C)C	uncharacterized protein (Bradysia odoriphaga, UniProt A0A2S0X9G4)	binding, competitive fluorescence displacement		pH 7.4		IC50	30 µM
O=C(NO)c1ccc(Cn2cnc3c(Nc4cccc([N+](=O)[O-])c4)ncnc32)cc1	RAC-beta serine/threonine-protein kinase (AKT2, Homo sapiens, UniProt P31751)	kinase activity, inhibitor		added: ATP 10 µM		IC50	17.8 µM
CCCCCCCCCCCCCCCC(=O)OC	uncharacterized protein (Drosophila suzukii, UniProt A0AB39ZCT4)	binding, bis-ANS competition fluorescence		pH 7.4, added: bis-ANS		IC50	> 50 µM
CC(C)(/C=C(\C#N)C(=O)N1CCC[C@@H](n2nc(-c3ccc(Oc4ccccc4)cc3F)c3c(N)ncnc32)C1)N1CCN(C2COC2)CC1	Cytoplasmic tyrosine-protein kinase BMX (BMX, Homo sapiens, UniProt P51813)					IC50	< 0.000254 µM
CCCCCCCCCCCCCCCC	uncharacterized protein (Bradysia odoriphaga, UniProt A0A2S0X9G4)	binding, competitive fluorescence displacement		pH 7.4		IC50	> 50 µM
Cc1cc(C#N)cc(C)c1Oc1nc(Nc2ccc(C#N)cc2)nc(N)c1Br	Gag-Pol polyprotein, reverse transcriptase (gag-pol, Xenotropic MuLV-related virus, UniProt A1Z651)	inhibitor, primer extension		added: 1 µM dNTPs		IC50	> 10 µM
COc1ccc(S(=O)(=O)Nc2ccc3oc(-c4ccc(NC(=O)c5ccc(Cl)s5)cc4)nc3c2)cc1	TST	enzyme activity, inhibitor		native rhodanese counter-screen		IC50	> 100 µM
CC[C@@H]1[C@H](F)C(=O)N[C@@H]1COc1nccc2cc(C(N)=O)c(OC)cc12	Microtubule-associated serine/threonine-protein kinase 3 (MAST3, Homo sapiens, UniProt O60307)	ATP-site probe binding, ActivX profiling	THP-1 cell lysate	Lys2 site		IC50	> 5 µM
Nc1ccc(S(=O)(=O)Nc2ccc(-c3nc4cc(NS(=O)(=O)c5ccc(N)cc5)ccc4o3)cc2)cc1	TST	enzyme activity, inhibitor		native rhodanese counter-screen		IC50	> 100 µM
CCCCCCCC(=O)OCC	uncharacterized protein (Drosophila suzukii, UniProt A0AB39ZCT4)	binding, bis-ANS competition fluorescence		pH 7.4, added: bis-ANS		IC50	> 50 µM
O=c1nc(SCc2cc(F)cc(C(F)(F)F)c2)nc(SCc2ccc3nc(Cl)ccc3c2)[nH]1	DNA topoisomerase 2-alpha (TOP2A, Homo sapiens, UniProt P11388)	ATPase activity, inhibitor, competitive ATPase		added: 1 mM ATP		IC50	29.6 µM
O=C(Nc1ccc(Br)cc1)c1ccc2c(c1)C(=O)NC2=O	MAOA					IC50	> 40 µM
COc1ccc(S(=O)(=O)Nc2ccc3oc(-c4ccc(NC(=O)c5cccc(C)c5[N+](=O)[O-])cc4)nc3c2)cc1	TST	enzyme activity, inhibitor		native rhodanese counter-screen		IC50	> 100 µM
Cn1cc(-c2ccc(-c3cncc(Cl)c3N3CCC4(CCNC4=O)CC3)cc2)cn1	COLO 205	gene expression, microarray, measured: ARHGEF2 mRNA		concentration not given, 2 h	reference: untreated cells	log2 fold change	2.27
COc1ccc(NC(=O)c2ccc3c(c2)C(=O)NC3=O)cc1Cl	MAOA					IC50	> 40 µM
Cc1ccc(S(=O)(=O)Nc2ccc(-c3nc4ccc(NS(=O)(=O)c5ccc(C)cc5)cc4[nH]3)cc2)cc1	TST	enzyme activity, inhibitor		native rhodanese counter-screen		IC50	> 100 µM
COc1cc(O)c(CC=C(C)C)c(O)c1C(=O)/C=C/c1ccc(O)cc1	Thyroxine 5-deiodinase (DIO3, Homo sapiens, UniProt P55073)	biochemical				IC50	0.43 µM and 0.19 µM and 0.21 µM
O=C(Nc1ccc(F)c(Cl)c1)c1ccc2c(c1)C(=O)NC2=O	MAOA					IC50	> 40 µM

Excerpt of the above:
SMILES	target or system	assay	system	setting	how to read	measurement	result
Cc1cnc(-c2ccc(-c3ccc(NC(=O)Nc4c(F)cc(F)cc4F)cc3F)c3c2C(=O)NC3)[nH]1	Receptor-type tyrosine-protein kinase FLT3 (FLT3, Homo sapiens, UniProt P36888)	enzyme activity, inhibitor, mobility shift		added: ATP 1 mM		IC50	0.0081 µM
CCn1c(NC(=O)Nc2ccccc2C)nc2ccccc21	fabG					IC50	0.09 µM
